Published values gathered from unrelated publications.
Cell line: A-375

CCN1C(=O)C(n2nc(-c3c(O)c4ccccc4oc3=O)cc2-c2ccc(Br)cc2)c2cc(Br)ccc21 (stereo not shown)
IC50 (cell growth or viability, SRB; 72 h): 47200 nM

CCCCCCCC(=O)NCCCC[C@H](N)C(=O)NCCCNCCCCNCCCN
EC50 (cell growth; 6 days, together with: DFMO 5.0 mM, spermidine 0.5 µM, aminoguanidine 1.0 mM): 2000 nM

CCCOc1ccc(/C=C(\C(=O)c2cc(C)[nH]c(=O)c2C(=O)N2CCCCC2)c2ccc(OCCC)cc2)cc1
IC50 (cell growth or viability, MTT; 72 h): > 10000 nM

COc1cc(C(=O)c2cccc(-c3ccc(C)c(NC(C)=O)c3)n2)cc(OC)c1OC
IC50 (cell growth or viability, MTS; 72 h): 28.8 nM

C=CC(=O)Nc1cccc(C(=O)Nc2ccc(Nc3nccc(-c4cccnc4)n3)cc2)c1
IC50 (c-Jun phosphorylation, microscopy, refers to: phospho-c-Jun Ser73; together with: anisomycin): ~30 nM

O=C1C(n2nc(-c3c(O)c4ccccc4oc3=O)cc2-c2ccc(Br)cc2)c2cc(Br)ccc2N1Cc1ccccc1 (stereo not shown)
IC50 (cell growth or viability, SRB; 72 h): 5470 nM

Cc1cc(C(=O)/C(=C\c2ccccc2C)c2ccccc2C)c(C(=O)N2CCCCC2)c(=O)[nH]1
IC50 (cell proliferation, MTT; 72 h): > 10000 nM

Cn1cnc2c(F)c(Nc3ccc(Br)cc3Cl)c(C(=O)NOCCO)cc21
EC50 (cell proliferation): 42 nM

O=C1C(n2nc(-c3c(O)c4ccccc4oc3=O)cc2-c2ccc(F)cc2)c2cc(Cl)ccc2N1Cc1ccccc1 (stereo not shown)
IC50 (cytotoxicity, SRB; 72 h): 1100 nM

Cc1cc(C)cc(/C=C(\C(=O)c2cc(C)[nH]c(=O)c2C(=O)N2CCCCC2)c2cc(C)cc(C)c2)c1
IC50 (cell proliferation, MTT; 72 h): > 10000 nM

For quick reference, copied from above:
COc1cc(C(=O)c2cccc(-c3ccc(C)c(NC(C)=O)c3)n2)cc(OC)c1OC
IC50 (cell growth or viability, MTS; 72 h): 28.8 nM
